Measurements from different studies.
Parts stem from different laboratories: compare values within a part only. Substitutions count along the parent as printed.
Sequence of UniProt P41279 (whole entry, looked up): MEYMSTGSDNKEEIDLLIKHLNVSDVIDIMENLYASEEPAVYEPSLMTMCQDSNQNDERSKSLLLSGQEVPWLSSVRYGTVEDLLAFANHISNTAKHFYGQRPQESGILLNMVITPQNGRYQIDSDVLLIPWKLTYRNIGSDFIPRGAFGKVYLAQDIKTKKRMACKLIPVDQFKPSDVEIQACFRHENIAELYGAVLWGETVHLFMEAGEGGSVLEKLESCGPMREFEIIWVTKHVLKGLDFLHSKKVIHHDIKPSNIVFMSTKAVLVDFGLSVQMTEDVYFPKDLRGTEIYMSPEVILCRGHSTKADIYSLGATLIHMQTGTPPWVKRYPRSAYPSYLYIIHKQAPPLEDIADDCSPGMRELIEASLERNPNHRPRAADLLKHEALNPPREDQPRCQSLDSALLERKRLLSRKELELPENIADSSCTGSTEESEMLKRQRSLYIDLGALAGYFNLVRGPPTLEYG

Sample 1 — technique: RNAcompete; form: RNA; medium: in vitro; tested at: 20 nM; setting: 7-mer, probes averaged, single round; reference: mean of 7-mers; direction: higher = stronger binding
Target: PABPC1L2, full length, GST fusion (mouse, UniProt A0ABA7IW68)
Construct (chain): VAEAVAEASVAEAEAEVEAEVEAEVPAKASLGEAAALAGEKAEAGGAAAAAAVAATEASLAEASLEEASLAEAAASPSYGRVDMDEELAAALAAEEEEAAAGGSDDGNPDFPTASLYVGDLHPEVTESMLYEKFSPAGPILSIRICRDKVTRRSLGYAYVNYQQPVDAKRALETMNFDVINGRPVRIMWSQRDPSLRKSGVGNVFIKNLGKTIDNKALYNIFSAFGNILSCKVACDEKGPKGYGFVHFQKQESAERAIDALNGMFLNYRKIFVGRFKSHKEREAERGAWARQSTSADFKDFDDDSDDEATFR
| Strand | 7-mer Z-score |
| --- | --- |
| UCCAAGA | -0.021 |
| GCUUUAA | 0.369 |
| UGGACCA | 0.0297 |
| AUUCACG | -0.0917 |
| CUCGCCA | -0.365 |
| AGGUGCG | 0.157 |
| CGUGCGU | -0.318 |
| CAGCAGU | 0.095 |

Sample 2 — technique: DHFR PCA, deep sequencing; medium: yeast; with: (+)-ABA 2500 µM; reference: wild-type fitted maximum; direction: higher = stronger binding
Target: ABI1, truncated, D143A, DHFR fusion (Arabidopsis thaliana)
Setting: methotrexate growth selection, single substitutions
Starting sequence: PYL1, truncated, DHFR fusion (Arabidopsis thaliana); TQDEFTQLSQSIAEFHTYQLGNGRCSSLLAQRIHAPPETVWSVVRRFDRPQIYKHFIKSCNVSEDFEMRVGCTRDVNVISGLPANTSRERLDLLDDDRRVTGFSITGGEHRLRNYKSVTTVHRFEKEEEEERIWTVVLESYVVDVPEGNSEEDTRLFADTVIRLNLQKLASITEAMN
| Variant | relative binding score [%] |
| --- | --- |
| S87A | 91.1 |
| E128V | 96.8 |
| L112G | -1.61 |
| R69D | 97.1 |
| Q31V | 75.8 |
| E128C | 96.5 |
| Q19I | 94.2 |
| R74N | -5.16 |

Sample 3 — technique: RNA Bind-n-Seq; form: RNA; medium: in vitro; tested at: 20 nM; setting: 6-mer, flanks averaged, single round; with: 150 mM KCl; reference: input library; direction: higher = stronger binding
Target: TAR DNA-binding protein 43, full length, His tag (TARDBP, Homo sapiens, UniProt Q13148, residues 1-414)
| Strand | 6-mer enrichment (R) |
| --- | --- |
| GGGGCG | 8.21 |
| UCUUGA | 0.635 |
| UAGCCA | 0.659 |
| UUGACA | 0.698 |
| CACCGG | 0.981 |
| AUGCGG | 1.73 |
| UAUGCA | 0.758 |
| GAUUUU | 0.631 |

Mixed results
| Structure (SMILES) | target | read-out | mode | tested at | reference | endpoint | value |
| --- | --- | --- | --- | --- | --- | --- | --- |
| Cc1cncc2cccc(S(=O)(=O)N3CCCN(C(=O)CN)C[C@@H]3C)c12 | Mitogen-activated protein kinase kinase kinase 8 (MAP3K8, Homo sapiens, UniProt P41279) | enzyme activity | inhibitor | 0.5 µM | control | remaining activity | 99.9% |
